# Experimental data pooled from the literature.
# Parts stem from different laboratories: compare values within a part only. “And” joins repeats or separate records; there may be more than shown.
# Chain of UniProt Q96PY6 (whole entry, looked up): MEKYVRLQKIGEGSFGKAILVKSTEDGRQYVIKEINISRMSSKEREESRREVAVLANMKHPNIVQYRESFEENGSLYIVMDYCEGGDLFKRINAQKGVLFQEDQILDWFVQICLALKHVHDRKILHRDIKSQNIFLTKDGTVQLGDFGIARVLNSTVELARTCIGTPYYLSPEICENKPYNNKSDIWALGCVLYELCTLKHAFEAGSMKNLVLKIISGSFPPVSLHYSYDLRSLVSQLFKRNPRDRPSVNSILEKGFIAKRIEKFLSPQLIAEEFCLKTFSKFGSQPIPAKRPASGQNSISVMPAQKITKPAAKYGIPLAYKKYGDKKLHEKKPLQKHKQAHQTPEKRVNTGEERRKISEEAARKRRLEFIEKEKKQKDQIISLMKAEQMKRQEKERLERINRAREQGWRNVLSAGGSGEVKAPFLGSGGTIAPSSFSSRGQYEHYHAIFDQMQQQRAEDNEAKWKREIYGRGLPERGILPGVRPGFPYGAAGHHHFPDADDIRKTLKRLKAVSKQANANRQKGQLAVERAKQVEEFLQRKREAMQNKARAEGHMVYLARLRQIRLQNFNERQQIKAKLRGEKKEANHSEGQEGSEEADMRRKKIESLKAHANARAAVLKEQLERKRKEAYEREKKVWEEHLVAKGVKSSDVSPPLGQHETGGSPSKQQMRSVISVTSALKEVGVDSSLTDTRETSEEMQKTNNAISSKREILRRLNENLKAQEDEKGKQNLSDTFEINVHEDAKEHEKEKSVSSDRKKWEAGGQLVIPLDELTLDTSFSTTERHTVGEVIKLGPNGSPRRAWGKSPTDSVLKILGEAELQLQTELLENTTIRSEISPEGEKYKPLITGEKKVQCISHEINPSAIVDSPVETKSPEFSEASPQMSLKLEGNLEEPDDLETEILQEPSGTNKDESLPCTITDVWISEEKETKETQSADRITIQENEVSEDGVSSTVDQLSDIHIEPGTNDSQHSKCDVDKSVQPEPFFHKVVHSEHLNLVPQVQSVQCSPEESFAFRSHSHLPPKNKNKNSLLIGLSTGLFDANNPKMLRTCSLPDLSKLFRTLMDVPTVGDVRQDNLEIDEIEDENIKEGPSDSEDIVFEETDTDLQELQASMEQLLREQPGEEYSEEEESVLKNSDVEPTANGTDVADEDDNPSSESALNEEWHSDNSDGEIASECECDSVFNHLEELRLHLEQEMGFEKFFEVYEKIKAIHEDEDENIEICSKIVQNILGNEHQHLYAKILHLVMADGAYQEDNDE
# Chain of UniProt P78368 (whole entry, looked up): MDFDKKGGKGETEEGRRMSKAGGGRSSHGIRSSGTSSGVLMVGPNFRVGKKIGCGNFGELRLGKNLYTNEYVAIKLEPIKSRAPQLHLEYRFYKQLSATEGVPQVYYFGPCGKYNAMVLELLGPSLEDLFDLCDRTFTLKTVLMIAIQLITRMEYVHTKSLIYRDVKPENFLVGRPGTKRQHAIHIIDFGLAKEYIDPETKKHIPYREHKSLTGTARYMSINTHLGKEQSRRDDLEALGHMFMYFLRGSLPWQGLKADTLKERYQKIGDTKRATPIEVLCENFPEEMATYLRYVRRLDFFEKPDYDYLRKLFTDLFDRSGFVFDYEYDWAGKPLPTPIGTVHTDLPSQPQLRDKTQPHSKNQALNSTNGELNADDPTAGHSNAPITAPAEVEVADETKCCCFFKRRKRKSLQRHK
# Chain of UniProt P49137 (whole entry, looked up): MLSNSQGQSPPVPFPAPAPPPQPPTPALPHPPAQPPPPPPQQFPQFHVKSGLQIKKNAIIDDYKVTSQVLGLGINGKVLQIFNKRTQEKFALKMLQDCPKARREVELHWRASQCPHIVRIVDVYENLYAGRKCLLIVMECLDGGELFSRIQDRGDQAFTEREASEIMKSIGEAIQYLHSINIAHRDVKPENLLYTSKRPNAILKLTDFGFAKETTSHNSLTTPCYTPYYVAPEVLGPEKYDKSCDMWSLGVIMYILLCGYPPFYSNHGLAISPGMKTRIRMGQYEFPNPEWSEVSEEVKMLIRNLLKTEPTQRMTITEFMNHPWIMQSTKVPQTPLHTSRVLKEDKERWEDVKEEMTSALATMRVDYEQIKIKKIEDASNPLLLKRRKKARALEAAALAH
# Chain of UniProt Q9UPE1 (whole entry, looked up): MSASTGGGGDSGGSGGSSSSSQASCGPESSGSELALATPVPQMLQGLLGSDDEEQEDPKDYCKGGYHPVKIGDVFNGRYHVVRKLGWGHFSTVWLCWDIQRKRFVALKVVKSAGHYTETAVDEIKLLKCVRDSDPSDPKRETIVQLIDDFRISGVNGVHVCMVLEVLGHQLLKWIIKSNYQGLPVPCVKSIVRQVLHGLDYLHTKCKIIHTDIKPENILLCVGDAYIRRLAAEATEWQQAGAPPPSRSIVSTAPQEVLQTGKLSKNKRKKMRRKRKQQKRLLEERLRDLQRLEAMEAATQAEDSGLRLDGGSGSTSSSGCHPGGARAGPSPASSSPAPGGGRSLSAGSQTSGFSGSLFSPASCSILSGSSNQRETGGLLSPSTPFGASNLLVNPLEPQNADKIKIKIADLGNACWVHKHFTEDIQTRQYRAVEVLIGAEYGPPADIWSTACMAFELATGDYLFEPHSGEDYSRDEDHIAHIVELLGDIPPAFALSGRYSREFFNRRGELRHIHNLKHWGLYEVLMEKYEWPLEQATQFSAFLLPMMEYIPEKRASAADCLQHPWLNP
# Chain of UniProt O00750 (whole entry, looked up): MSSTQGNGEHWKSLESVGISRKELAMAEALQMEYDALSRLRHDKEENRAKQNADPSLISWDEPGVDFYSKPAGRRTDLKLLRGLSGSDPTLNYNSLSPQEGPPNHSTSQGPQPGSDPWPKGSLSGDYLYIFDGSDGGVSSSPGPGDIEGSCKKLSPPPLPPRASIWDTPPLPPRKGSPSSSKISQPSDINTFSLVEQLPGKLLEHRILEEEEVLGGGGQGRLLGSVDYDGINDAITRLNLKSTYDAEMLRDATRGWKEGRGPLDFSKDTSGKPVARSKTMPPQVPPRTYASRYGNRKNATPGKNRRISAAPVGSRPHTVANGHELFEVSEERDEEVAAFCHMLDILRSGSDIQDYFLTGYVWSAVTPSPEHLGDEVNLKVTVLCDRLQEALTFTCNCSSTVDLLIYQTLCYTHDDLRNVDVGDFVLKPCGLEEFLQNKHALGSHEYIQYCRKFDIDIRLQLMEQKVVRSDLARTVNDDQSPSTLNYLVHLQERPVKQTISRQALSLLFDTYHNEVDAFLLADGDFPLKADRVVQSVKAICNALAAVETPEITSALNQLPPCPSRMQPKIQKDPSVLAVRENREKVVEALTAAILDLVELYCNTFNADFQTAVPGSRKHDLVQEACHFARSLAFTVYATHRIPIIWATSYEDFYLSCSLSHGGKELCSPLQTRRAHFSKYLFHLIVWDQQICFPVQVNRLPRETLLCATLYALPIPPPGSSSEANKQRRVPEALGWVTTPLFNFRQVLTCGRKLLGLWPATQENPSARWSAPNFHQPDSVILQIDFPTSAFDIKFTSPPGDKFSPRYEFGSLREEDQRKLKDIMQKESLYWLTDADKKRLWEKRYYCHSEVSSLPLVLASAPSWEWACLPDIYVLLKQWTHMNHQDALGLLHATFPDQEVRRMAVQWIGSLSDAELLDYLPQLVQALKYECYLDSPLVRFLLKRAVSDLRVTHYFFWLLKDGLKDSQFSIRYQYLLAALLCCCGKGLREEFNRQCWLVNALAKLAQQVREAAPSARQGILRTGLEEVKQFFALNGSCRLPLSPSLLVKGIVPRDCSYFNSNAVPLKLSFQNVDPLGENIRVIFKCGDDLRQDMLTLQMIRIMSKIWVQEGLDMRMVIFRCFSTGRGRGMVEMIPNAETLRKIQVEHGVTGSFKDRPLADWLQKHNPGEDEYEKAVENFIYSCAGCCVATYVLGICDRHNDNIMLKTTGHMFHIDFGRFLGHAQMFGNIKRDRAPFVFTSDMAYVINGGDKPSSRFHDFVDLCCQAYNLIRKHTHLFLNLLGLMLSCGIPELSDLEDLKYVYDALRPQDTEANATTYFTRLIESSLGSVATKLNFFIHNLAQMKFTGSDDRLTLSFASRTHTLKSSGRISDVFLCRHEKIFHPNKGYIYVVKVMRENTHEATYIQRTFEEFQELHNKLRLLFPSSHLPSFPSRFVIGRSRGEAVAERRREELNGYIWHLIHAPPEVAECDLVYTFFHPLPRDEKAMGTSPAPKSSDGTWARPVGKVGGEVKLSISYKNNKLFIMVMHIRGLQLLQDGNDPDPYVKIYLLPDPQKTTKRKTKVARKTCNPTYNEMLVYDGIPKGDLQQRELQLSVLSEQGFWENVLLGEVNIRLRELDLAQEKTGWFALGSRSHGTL
# Chain of UniProt Q9UHD2 (whole entry, looked up): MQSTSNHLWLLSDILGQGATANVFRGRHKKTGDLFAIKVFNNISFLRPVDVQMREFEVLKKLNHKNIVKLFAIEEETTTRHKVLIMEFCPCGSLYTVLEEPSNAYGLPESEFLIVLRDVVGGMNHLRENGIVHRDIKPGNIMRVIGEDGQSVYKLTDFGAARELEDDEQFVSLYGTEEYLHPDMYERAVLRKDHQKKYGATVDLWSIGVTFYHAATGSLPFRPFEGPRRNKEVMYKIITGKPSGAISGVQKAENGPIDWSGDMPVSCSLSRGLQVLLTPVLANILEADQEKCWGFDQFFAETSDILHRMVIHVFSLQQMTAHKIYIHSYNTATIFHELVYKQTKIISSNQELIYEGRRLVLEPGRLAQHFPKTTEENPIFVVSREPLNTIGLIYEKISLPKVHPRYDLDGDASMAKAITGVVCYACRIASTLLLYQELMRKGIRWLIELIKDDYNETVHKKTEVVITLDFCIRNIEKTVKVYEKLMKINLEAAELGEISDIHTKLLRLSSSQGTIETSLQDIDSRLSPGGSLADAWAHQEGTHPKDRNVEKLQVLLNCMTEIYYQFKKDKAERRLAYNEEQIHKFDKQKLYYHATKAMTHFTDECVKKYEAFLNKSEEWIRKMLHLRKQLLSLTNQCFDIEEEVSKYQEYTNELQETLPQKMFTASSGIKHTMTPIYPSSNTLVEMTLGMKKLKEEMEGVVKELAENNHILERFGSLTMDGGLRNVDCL

# Block 1
# Method: PRP chromatography
# Notes: linear fit, 1 mL
SMILES,"logD 1,9-decadiene/water [log units]"
CC(C)C[C@@H]1NC(=O)[C@H](C)NC(=O)[C@@H](CC(C)C)NC(=O)[C@H](CC(C)C)NC(=O)[C@@H](CCC(=O)N2CCCC2)NC(=O)[C@H](CC(C)C)NC(=O)[C@@H](CC(C)C)NC1=O,0.662
CC(C)C[C@@H]1NC(=O)[C@H](C)NC(=O)[C@H](CCC(=O)N2CCCC2)NC(=O)[C@H](CC(C)C)NC(=O)[C@@H](CCC(=O)N2CCCC2)NC(=O)[C@H](CC(C)C)NC(=O)[C@@H](CC(C)C)NC1=O,-1.84
CC(C)C[C@@H]1NC(=O)[C@H](CC(C)C)NC(=O)[C@@H](CC(C)C)NC(=O)[C@H](C)NC(=O)[C@H](C)NC(=O)[C@@H](CC(C)C)NC(=O)[C@H](C)NC1=O,-1.68

# Block 2
# Cell line: mouse MPNST tumor cells
# Method: high-content nuclear imaging
# Measured: cell number
# Concentration: 10 µM
# Time: 12 h
# Notes: mean of 2 replicates
# Reference: plate mean
# Reading: higher = more cells
Compound,nuclei count
c1ccc2c(-c3cnn4cc(-c5ccc(N6CCNCC6)cc5)cnc34)ccnc2c1,-6.39 z-score
O=C(c1ccccc1)c1ccc2n1CCC2C(=O)O (stereo not shown),0.537 z-score
Cc1ccc(Sc2cncc3sc(C(N)=O)cc23)cc1,0.0799 z-score
c1ccc(-c2oc3ncnc(NC[C@@H]4CCCO4)c3c2-c2ccccc2)cc1,1.51 z-score
CCN(CC)Cc1cc(Nc2ccnc3cc(Cl)ccc23)ccc1O,0.258 z-score and -5.37 z-score
CCOC(=O)[C@H](Cc1ccc([N+](=O)[O-])cc1)NC(=O)c1ccccc1,0.158 z-score

# Block 3
# SMILES: COc1ccc(S(=O)(=O)N(CCO)c2ccccc2CN(C)CC=Cc2ccc(Cl)cc2)cc1
# Observed: enzyme activity
# Mode: inhibitor
# Concentration: 0.5 µM
# Reference: control
target,remaining activity
"Activin receptor type-1B (ACVR1B, Homo sapiens, UniProt P36896)",93.2%
"Serine/threonine-protein kinase TBK1 (TBK1, Homo sapiens, UniProt Q9UHD2)",97.1%
"Ribosomal protein S6 kinase alpha-2 (RPS6KA2, Homo sapiens, UniProt Q15349)",99.2%
"Ephrin type-A receptor 3 (EPHA3, Homo sapiens, UniProt P29320)",102%
"Tyrosine-protein kinase Mer (MERTK, Homo sapiens, UniProt Q12866)",97%
"Angiopoietin-1 receptor (TEK, Homo sapiens, UniProt Q02763)",105%
"Tyrosine-protein kinase JAK3 (JAK3, Homo sapiens, UniProt P52333)",97%
"Serine/threonine-protein kinase Nek1 (NEK1, Homo sapiens, UniProt Q96PY6)",104%
"Fibroblast growth factor receptor 1 (FGFR1, Homo sapiens, UniProt P11362)",99.5%
"Casein kinase I isoform gamma-2 (CSNK1G2, Homo sapiens, UniProt P78368)",103%
"MAP kinase-activated protein kinase 2 (MAPKAPK2, Homo sapiens, UniProt P49137)",102%
"Wee1-like protein kinase (WEE1, Homo sapiens, UniProt P30291)",96%
"Tyrosine-protein kinase Lck (LCK, Homo sapiens, UniProt P06239)",95.5%
"Glycogen synthase kinase-3 beta (GSK3B, Homo sapiens, UniProt P49841)",102%

# Block 4
# Host: mouse
# Sample: microsomes or S9
# Concentration: 2 µM
# Time: 0.5 h
Structure (SMILES),remaining compound [%]
CC1(C)CC(=O)C2=C(C1)c1c(ccc3ncccc13)NC2c1ccc(F)cc1 (stereo not shown),30
CN(C(=O)NCC(=O)NC1C2CC3CC1CC(C(N)=O)(C3)C2)c1c(Cl)cc(Cl)cc1Cl (stereo not shown),0.678
COC(=O)C1CCN(C(=O)c2ccccc2N(C)S(C)(=O)=O)CC1,41.8
O=C(Nc1nc(-c2ccncc2)cs1)c1ccccn1,13.5

# Block 5
# Compound: CCC(=O)N[C@H]1CC[C@@H](C(=O)N(C)c2ccc(-c3nc4ccccc4o3)cc2)C1
# Observed: cell-free assay
# Method: competition with immobilised ligand
# Concentration: 1 µM
target,remaining binding [%]
"SRSF protein kinase 3 (SRPK3, Homo sapiens, UniProt Q9UPE1)",100
"Phosphatidylinositol 4-phosphate 3-kinase C2 domain-containing subunit beta (PIK3C2B, Homo sapiens, UniProt O00750)",93
"Tyrosine-protein kinase ABL1, non-phosphorylated (ABL1, Homo sapiens, UniProt P00519, F317L)",86
"Serine/threonine-protein kinase 16 (STK16, Homo sapiens, UniProt O75716)",100

# A few entries again (block 3):
target,remaining activity
"Angiopoietin-1 receptor (TEK, Homo sapiens, UniProt Q02763)",105%
"Glycogen synthase kinase-3 beta (GSK3B, Homo sapiens, UniProt P49841)",102%
